Published values gathered from unrelated publications.
Protocols differ between the studies behind these lines. Values joined by “and” are separate records of one study, mostly repeats; a detail may differ. Numbers after ± are the reported error. ≈ marks a conversion by molar mass, not a printed value.

`c1csc(CNc2cc[nH]n2)c1` gave a tail DNA of 1.93% (alkaline comet; Hsd:ICR(CD-1) mice, male, liver; oral, 500 mg/kg/day, 3 days).
The blood-to-plasma ratio of `C=CC(=O)NC1CCN(c2ncc3ncnc(Nc4ccc(Oc5ccc6c(c5)ncn6C)c(C)c4)c3n2)CC1` is reported as 0.879 (refers to: total radioactivity; healthy male human, whole blood and plasma; oral, 60 mg, 12 h, geometric mean).
For `O=C(O)c1cccc(C(=O)O)c1`, “apparent dissolution enthalpy” read 3.5 kcal/mol (betaine/glycerol DES-water; DES mass fraction 0.70).
For `O=C1NCCc2nc(OCc3cccc(F)c3)ccc21`, “respiratory rate score” read 0 (modified Irwin test; Sprague-Dawley rat, male; oral, 100 mg/kg, 4 h; higher = stronger change).
`O=C(Nc1nc2cccc(-c3ccc(CN4CCS(=O)(=O)CC4)cc3)n2n1)C1CC1` — result for “treatment-emergent adverse events”: 0% (refers to: animal bite; human rheumatoid arthritis patients; oral, 200 mg once daily, 4 weeks, regardless of relatedness).
Under “serum TG level”, `CCc1cc(C(=O)NC)c2nccc(N3CCc4c(cc(Cn5ccnc5)cc4-c4cn(C)nc4C(F)(F)F)C3=O)c2c1` is recorded as 0.8 ± 0.3 mmol/L (Sprague Dawley rats; oral, 100 mg/kg twice daily, 7 days).
`C=C(F)C(=O)N1CCN(c2nc(OC[C@@H]3CCCN3C)nc3c2CCN(c2cccc4cccc(Cl)c24)C3)C[C@@H]1CC#N` gave an AUC(0-12h) of 4310 ng·h/mL (cancer patients, plasma; 600 mg).
`Cn1cc(Nc2nccc(-c3ccc4c(c3)CN(C3COC3)CC[C@H]4NC(=O)c3cn(C(C)(C)C)nn3)n2)cn1`: “class-switched memory B cell change” 28.8% (human, whole blood; 50 mg twice daily, day 14; baseline: pre-dose baseline).
`Cn1c(Cc2ccccc2)nnc1Sc1ccc([N+](=O)[O-])cc1C(=O)N1CCOCC1` has a thermodynamic solubility of 140 µM (≈ 61.6 µg/mL) (aqueous buffer; pH 7.4).
With `CCc1c(-c2ccccc2)c(-c2ccccc2)nn1-c1ccccc1-c1cccc(OCC(=O)O)c1` the AUC(all) was 5820 ng·h/mL and 4940 ng·h/mL (Sprague-Dawley rat; oral, dose not given).
The tissue concentration of `CN(C(=O)n1cnc(-c2cccnc2)c1)[C@H]1CC[C@H](O)CC1` is reported as 15.1 ± 0.4 ng/g (rat, cortex; oral, 10 mg/kg single dose, 24 h).
Under “AUEC(0-4 h) systolic BP”, `CCO` is recorded as -11 ± 27.7 h·mmHg (healthy Chinese men; 0.5 g/kg, supine or semi-supine, together with: placebo).
For `O=C1CCc2ccc(OCCCCN3CCN(c4cccc(Cl)c4Cl)CC3)cc2N1`, “adverse event incidence” read 11% (refers to: Akathisia; genotyped patients, CYP2D6 ultrarapid metabolizers; dose not given, long-acting oral or depot).
`COc1ccc([C@@H](O)c2cc(-c3ncnc4cc(N5CCOCC5)ccc34)c(F)cc2Cl)nn1`: “drug-related proctitis incidence” 17% (locally advanced rectal cancer patients; 150 mg, together with: capecitabine and radiotherapy).
With `COCCOc1cnc2ccn([C@H](C)c3nnc4c(F)cc(-c5cnn(C)c5)cn34)c(=O)c2c1` the Cmax was 3040 ng/mL (patients, plasma; oral, 200 mg twice daily, day 28, 400 per day).
The Tmax of `Cl.[2H]C([2H])([2H])CC(=O)c1cnc(NC(=O)C2CC2)cc1Nc1cccc(-c2ncn(C([2H])([2H])[2H])n2)c1OC` is reported as 1.08 h (median; human; oral, 40 mg twice daily, day 14, fasted, tablet, multiple dose).
`O=C(N[C@H](Cc1c[nH]c2ccccc12)C(=O)Nc1ccncc1)c1ccc(-c2cc(C(F)(F)F)ccc2F)cc1F` gave a concentration of 330 nM (Swiss Webster mouse, female, muscle; oral, 50 mg/kg, 8 h, 20% HPβCD vehicle).
`CCCCc1ccc(C#Cc2ccc(OCC)cc2)cc1` — result for “median placental accumulation”: 3.28 ng/g (rat, placenta; 1000 ng/mL in perfusate, middle dose, mixture of 21 LCMs).
`Cc1cccnc1CNc1nc(-c2ccccn2)nc2ccccc12` gave a kinetic solubility of 73 µg/mL (≈ 223 µM) (Japanese Pharmacopoeia disintegration test solution 2; pH 6.8).
`CCN1/C(=C/C(C)=O)Sc2ccc(F)cc21` — result for “mean blood pressure change”: 104 ± 6.6% (cynomolgus monkey; oral, 10 mg/kg, 0.5 h post-dose; baseline: pre-dose).

A few entries again:
`Cn1c(Cc2ccccc2)nnc1Sc1ccc([N+](=O)[O-])cc1C(=O)N1CCOCC1` has a thermodynamic solubility of 140 µM (≈ 61.6 µg/mL) (aqueous buffer; pH 7.4).
The blood-to-plasma ratio of `C=CC(=O)NC1CCN(c2ncc3ncnc(Nc4ccc(Oc5ccc6c(c5)ncn6C)c(C)c4)c3n2)CC1` is reported as 0.879 (refers to: total radioactivity; healthy male human, whole blood and plasma; oral, 60 mg, 12 h, geometric mean).
